Assay results pooled from the literature.
A part holds a random share of what one study measured.
Sequence of UniProt P49761 (whole entry, looked up): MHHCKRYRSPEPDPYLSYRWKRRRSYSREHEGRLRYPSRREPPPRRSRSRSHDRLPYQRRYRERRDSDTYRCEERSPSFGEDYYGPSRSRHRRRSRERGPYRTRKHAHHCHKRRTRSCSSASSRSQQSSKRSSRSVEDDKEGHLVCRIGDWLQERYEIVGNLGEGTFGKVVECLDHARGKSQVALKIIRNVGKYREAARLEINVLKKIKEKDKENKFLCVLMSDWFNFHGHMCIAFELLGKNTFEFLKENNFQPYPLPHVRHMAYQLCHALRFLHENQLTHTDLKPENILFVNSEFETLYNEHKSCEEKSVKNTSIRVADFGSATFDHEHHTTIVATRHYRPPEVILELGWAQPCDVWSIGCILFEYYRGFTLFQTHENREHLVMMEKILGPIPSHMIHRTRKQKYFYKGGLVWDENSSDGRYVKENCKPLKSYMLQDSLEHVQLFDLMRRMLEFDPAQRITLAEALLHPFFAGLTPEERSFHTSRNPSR
Sequence of UniProt P32298 (whole entry, looked up): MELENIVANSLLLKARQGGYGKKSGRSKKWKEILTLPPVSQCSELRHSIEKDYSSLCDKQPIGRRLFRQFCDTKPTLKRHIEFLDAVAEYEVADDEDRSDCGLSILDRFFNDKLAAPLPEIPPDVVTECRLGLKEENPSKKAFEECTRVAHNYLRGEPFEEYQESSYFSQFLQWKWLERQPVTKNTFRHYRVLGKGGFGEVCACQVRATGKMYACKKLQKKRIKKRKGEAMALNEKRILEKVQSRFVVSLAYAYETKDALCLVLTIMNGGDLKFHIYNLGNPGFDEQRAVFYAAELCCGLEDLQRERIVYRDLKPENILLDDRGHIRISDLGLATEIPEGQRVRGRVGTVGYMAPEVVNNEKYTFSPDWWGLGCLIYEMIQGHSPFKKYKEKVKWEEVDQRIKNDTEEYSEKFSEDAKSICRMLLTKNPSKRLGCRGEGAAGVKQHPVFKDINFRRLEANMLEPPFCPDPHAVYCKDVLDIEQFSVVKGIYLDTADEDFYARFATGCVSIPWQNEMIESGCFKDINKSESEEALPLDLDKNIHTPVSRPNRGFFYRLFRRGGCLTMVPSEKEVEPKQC
Sequence of UniProt Q16539 (whole entry, looked up): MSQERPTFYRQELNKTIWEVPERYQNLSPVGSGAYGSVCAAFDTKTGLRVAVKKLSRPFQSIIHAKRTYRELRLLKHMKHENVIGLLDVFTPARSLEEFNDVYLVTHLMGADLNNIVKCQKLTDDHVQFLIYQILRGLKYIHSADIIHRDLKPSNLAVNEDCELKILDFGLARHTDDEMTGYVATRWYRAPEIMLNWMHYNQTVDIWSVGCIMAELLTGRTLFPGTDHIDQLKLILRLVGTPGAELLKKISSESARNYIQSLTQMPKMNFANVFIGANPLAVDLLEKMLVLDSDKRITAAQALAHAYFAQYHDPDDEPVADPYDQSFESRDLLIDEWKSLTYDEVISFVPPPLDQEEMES
Sequence of UniProt P08069 (whole entry, looked up): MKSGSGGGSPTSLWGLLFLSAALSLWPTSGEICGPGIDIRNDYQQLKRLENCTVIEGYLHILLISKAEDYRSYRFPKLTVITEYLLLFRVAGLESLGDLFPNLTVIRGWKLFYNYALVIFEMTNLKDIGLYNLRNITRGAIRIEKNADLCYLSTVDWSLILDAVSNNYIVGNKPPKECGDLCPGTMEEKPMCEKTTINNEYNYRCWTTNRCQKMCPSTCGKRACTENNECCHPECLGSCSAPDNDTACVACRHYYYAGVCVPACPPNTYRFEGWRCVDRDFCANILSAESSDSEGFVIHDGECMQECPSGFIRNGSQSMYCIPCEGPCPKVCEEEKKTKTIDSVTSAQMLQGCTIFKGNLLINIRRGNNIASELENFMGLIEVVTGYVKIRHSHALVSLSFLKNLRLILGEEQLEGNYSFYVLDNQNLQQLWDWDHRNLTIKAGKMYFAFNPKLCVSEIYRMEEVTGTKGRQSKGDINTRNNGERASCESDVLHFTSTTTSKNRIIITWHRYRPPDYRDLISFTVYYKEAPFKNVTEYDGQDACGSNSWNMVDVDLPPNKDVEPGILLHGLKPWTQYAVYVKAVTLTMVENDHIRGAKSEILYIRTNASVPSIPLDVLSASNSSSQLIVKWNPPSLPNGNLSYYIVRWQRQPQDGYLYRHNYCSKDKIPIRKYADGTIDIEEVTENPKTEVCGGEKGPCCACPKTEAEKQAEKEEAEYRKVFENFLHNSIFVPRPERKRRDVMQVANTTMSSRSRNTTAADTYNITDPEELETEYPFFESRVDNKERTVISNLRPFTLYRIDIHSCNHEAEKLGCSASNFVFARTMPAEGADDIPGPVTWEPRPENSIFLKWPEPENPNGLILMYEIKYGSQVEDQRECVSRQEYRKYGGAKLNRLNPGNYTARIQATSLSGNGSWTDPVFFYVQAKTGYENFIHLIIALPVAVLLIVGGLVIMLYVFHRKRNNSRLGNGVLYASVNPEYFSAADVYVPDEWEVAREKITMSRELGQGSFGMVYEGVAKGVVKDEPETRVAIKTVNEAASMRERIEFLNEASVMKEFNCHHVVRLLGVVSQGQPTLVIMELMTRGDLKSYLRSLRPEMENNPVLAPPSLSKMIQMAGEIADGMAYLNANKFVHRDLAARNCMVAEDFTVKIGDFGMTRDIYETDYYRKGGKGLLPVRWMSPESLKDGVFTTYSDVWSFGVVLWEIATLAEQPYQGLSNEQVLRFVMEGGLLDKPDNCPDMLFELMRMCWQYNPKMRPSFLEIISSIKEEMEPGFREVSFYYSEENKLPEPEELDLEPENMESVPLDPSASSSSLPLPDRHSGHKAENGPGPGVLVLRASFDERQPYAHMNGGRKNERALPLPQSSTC
Sequence of UniProt Q16566 (whole entry, looked up): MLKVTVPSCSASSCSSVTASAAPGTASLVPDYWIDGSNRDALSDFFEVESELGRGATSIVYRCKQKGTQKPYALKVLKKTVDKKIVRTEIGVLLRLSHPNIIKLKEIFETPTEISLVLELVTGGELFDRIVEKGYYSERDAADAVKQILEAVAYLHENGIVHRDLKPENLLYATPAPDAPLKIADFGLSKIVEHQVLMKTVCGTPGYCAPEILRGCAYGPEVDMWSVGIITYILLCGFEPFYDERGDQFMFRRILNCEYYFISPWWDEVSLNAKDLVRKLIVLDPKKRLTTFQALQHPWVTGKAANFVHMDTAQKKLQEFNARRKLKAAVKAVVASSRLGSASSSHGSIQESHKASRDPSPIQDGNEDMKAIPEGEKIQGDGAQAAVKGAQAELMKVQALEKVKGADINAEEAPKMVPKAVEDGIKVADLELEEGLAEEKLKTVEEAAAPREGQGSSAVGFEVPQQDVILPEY
Sequence of UniProt Q8N4C8 (whole entry, looked up): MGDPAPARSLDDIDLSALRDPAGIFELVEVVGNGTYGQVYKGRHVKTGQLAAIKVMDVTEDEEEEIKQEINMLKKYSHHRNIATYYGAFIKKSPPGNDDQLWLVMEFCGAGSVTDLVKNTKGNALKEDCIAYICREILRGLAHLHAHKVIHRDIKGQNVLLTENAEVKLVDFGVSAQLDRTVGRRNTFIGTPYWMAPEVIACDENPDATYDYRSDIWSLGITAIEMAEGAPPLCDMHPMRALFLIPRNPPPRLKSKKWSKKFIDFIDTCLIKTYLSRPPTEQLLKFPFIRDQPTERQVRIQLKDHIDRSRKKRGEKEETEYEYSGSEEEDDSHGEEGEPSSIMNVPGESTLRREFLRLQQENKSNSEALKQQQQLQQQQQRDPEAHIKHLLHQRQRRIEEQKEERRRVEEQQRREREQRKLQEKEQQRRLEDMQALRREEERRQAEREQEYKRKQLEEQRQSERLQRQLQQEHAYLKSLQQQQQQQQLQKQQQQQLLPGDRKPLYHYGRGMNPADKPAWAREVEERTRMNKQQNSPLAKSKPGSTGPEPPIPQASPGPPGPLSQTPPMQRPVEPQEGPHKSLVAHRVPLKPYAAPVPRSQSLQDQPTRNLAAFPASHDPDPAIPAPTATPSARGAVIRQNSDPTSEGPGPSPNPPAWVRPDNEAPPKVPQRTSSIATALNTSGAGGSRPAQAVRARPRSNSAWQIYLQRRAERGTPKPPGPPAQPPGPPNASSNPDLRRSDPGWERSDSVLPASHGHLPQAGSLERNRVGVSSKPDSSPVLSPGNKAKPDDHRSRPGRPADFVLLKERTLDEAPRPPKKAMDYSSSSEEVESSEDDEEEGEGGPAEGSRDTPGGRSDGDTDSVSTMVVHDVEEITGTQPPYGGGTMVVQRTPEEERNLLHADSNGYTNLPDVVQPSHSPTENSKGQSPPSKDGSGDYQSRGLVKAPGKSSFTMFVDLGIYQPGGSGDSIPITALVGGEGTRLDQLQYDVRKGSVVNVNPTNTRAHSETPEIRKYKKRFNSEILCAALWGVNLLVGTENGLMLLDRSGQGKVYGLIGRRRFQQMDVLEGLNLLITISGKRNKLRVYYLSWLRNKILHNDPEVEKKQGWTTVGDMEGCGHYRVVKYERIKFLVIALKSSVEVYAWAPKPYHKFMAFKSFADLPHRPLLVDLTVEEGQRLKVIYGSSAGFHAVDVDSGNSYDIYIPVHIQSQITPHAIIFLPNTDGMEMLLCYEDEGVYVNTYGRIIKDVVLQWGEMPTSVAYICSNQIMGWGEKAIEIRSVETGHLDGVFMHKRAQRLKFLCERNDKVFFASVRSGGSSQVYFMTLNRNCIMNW
Sequence of UniProt P06493 (whole entry, looked up): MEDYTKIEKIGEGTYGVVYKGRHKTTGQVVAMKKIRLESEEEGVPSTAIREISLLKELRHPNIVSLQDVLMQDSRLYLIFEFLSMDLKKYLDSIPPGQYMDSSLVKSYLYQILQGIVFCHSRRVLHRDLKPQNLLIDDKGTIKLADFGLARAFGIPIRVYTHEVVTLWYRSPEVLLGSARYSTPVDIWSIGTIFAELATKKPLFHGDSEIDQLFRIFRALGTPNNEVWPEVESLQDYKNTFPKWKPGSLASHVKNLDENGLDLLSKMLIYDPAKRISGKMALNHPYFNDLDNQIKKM

Sample 1
Target: PABPC1L2, full length, GST fusion (mouse, UniProt A0ABA7IW68)
Technique: RNAcompete
Molecule type: RNA
Matrix: in vitro
Tested at: 20 nM
Setting: 7-mer, probes averaged, single round
Relative to: mean of 7-mers
Reading: higher = stronger binding
Construct (chain): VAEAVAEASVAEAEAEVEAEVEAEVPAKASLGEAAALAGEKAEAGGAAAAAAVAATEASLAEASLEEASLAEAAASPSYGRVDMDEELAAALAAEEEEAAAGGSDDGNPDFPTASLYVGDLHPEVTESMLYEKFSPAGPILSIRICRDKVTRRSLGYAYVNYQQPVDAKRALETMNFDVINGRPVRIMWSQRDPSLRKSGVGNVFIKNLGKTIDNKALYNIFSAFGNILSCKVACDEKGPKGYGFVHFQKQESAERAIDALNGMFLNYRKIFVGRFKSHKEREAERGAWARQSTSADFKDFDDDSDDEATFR
`ACGUUGC` has a 7-mer Z-score of -0.162.
`ACCAUAG` has a 7-mer Z-score of -0.0699.
`CCAAUAG` gave a 7-mer Z-score of -0.0192.
`AAGGGGU` has a 7-mer Z-score of 0.472.
`ACGAAAA` gave a 7-mer Z-score of 3.77.
The 7-mer Z-score of `UGCAAAA` is reported as 2.86.
`CUAGUGG` has a 7-mer Z-score of -0.193.
`CACUUUU` gave a 7-mer Z-score of -0.108.

Sample 2
Target: Interferon regulatory factor 5, full length, phosphomimetic (IRF5, Homo sapiens, UniProt Q13568-2, residues 1-514, S451D/S453D/S456D/S462D)
Technique: protein-binding microarray
Molecule type: double-stranded DNA, one strand shown
Matrix: in vitro
Tested at: 940 nM top
Setting: 60-bp whole probe
With: salmon DNA 0.4 mg/ml
Relative to: random background probes
Reading: higher = stronger binding
Constant ends, left off below: GCCTAGCAC … GTCTTGATTCGCTTGACGCTGCTG
`CACGATATCGGGACTGGAGACGTGCTA`: “fitted relative affinity” 0.156 z-score.
`GGCGAACTGGGGACTGGAGACGTGCTA`: “fitted relative affinity” -0.151 z-score.
For `GACGGTTTCGGACTGGGGAGGTGCTAG`, “fitted relative affinity” read 6.35 z-score.
`GTCAGGGGTCTTGCTCTGTAGTGCTAG`: “fitted relative affinity” -0.315 z-score.
For `TTAGGTTTCGGGACTGGGGTAGTGCTA`, “fitted relative affinity” read 8.54 z-score.
Under “fitted relative affinity”, `CTATTTTTCCCCTGCACTCAGTGCTAG` is recorded as 1.34 z-score.
For `GACGAACTGGGGACTGGAGAGGTGCTA`, “fitted relative affinity” read -0.101 z-score.
`TTAGGTTTCGACTATCGGTTTGTGCTA` — result for “fitted relative affinity”: 9.46 z-score.

Sample 3
SMILES: c1ccc(N2CCN(Cc3nc4ccccc4[nH]3)CC2)nc1
Tested at: 1 µM
The remaining binding was 100% (SRPK1 (Homo sapiens, UniProt Q96SB4); binding, competition with immobilised ligand).
The remaining binding was 100% (STK17B (Homo sapiens, UniProt O94768); cell-free assay, competition with immobilised ligand).
TBK1 (Homo sapiens, UniProt Q9UHD2); binding, competition with immobilised ligand — remaining binding: 77%.
It gave 100% for remaining binding (Aurora kinase C (AURKC, Homo sapiens, UniProt Q9UQB9); binding, competition with immobilised ligand).
It gave 100% for remaining binding (MAP2K1 (Homo sapiens, UniProt Q02750); binding, competition with immobilised ligand).
It gave 100% for remaining binding (FYN (Homo sapiens, UniProt P06241); binding, competition with immobilised ligand).
It gave 100% for remaining binding (SBK3 (Homo sapiens, UniProt P0C264); binding, competition with immobilised ligand).
PIK3CB (Homo sapiens, UniProt P42338); cell-free assay, competition with immobilised ligand — remaining binding: 100%.
The remaining binding was 97% (INSRR (Homo sapiens, UniProt P14616); binding, competition with immobilised ligand).
Tyrosine-protein kinase ABL1, phosphorylated (ABL1, Homo sapiens, UniProt P00519, F317I); binding — remaining binding: 100%.
For IGF1R (Homo sapiens, UniProt P08069); cell-free assay, competition with immobilised ligand: remaining binding read 100%.
It gave 100% for remaining binding (Non-receptor tyrosine-protein kinase TYK2, JH1 (TYK2, Homo sapiens, UniProt P29597); binding, competition with immobilised ligand).
The remaining binding was 93% (TYRO3 (Homo sapiens, UniProt Q06418); cell-free assay, competition with immobilised ligand).

Sample 4
Structure (SMILES): CN(C)CCCn1cc(C2=C(c3c[nH]c4ccccc34)C(=O)NC2=O)c2ccccc21
Effect on: enzyme activity
Action: inhibitor
Tested at: 0.5 µM
Relative to: control
MAPK14 (Homo sapiens, UniProt Q16539) — remaining activity: 90.7%.
For CLK3 (Homo sapiens, UniProt P49761): remaining activity read 94.3%.
The remaining activity was 100% (MAPK1 (Homo sapiens, UniProt P28482)).
It gave 92.1% for remaining activity (MINK1 (Homo sapiens, UniProt Q8N4C8)).
MARK2 (Homo sapiens, UniProt Q7KZI7) — remaining activity: 71.7%.
It gave 107% for remaining activity (TXK (Homo sapiens, UniProt P42681)).
The remaining activity was 60.3% (Cyclin-dependent kinase 9, with cyclin K (CDK9, Homo sapiens, UniProt P50750)).
It gave 100% for remaining activity (Cyclin-dependent kinase 1, with cyclin A (CDK1, Homo sapiens, UniProt P06493)).
The remaining activity was 89.5% (CAMK4 (Homo sapiens, UniProt Q16566)).
For MAPK11 (Homo sapiens, UniProt Q15759): remaining activity read 96.1%.
It gave 94.9% for remaining activity (PLK3 (Homo sapiens, UniProt Q9H4B4)).
For GRK4 (Homo sapiens, UniProt P32298): remaining activity read 84.5%.
For PNCK (Homo sapiens, UniProt Q6P2M8): remaining activity read 106%.

For quick reference, copied from above (sample 4):
It gave 107% for remaining activity (TXK (Homo sapiens, UniProt P42681)).
The remaining activity was 60.3% (Cyclin-dependent kinase 9, with cyclin K (CDK9, Homo sapiens, UniProt P50750)).
It gave 100% for remaining activity (Cyclin-dependent kinase 1, with cyclin A (CDK1, Homo sapiens, UniProt P06493)).
The remaining activity was 89.5% (CAMK4 (Homo sapiens, UniProt Q16566)).
For MAPK11 (Homo sapiens, UniProt Q15759): remaining activity read 96.1%.
It gave 94.9% for remaining activity (PLK3 (Homo sapiens, UniProt Q9H4B4)).
For GRK4 (Homo sapiens, UniProt P32298): remaining activity read 84.5%.
